Assay results pooled from the literature.
Parts stem from different laboratories: compare values within a part only.
UniProt P19784, sequence (whole entry, looked up): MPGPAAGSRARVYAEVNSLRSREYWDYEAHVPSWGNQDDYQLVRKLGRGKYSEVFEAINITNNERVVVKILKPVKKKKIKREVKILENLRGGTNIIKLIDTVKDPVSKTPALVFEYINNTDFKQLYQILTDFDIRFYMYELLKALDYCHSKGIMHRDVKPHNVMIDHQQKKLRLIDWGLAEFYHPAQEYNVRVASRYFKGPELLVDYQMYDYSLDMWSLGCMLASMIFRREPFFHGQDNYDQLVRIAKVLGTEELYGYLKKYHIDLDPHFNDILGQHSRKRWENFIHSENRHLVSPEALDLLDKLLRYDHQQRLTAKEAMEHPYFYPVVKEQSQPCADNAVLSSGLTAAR
UniProt P42336, sequence (whole entry, unmodified, looked up): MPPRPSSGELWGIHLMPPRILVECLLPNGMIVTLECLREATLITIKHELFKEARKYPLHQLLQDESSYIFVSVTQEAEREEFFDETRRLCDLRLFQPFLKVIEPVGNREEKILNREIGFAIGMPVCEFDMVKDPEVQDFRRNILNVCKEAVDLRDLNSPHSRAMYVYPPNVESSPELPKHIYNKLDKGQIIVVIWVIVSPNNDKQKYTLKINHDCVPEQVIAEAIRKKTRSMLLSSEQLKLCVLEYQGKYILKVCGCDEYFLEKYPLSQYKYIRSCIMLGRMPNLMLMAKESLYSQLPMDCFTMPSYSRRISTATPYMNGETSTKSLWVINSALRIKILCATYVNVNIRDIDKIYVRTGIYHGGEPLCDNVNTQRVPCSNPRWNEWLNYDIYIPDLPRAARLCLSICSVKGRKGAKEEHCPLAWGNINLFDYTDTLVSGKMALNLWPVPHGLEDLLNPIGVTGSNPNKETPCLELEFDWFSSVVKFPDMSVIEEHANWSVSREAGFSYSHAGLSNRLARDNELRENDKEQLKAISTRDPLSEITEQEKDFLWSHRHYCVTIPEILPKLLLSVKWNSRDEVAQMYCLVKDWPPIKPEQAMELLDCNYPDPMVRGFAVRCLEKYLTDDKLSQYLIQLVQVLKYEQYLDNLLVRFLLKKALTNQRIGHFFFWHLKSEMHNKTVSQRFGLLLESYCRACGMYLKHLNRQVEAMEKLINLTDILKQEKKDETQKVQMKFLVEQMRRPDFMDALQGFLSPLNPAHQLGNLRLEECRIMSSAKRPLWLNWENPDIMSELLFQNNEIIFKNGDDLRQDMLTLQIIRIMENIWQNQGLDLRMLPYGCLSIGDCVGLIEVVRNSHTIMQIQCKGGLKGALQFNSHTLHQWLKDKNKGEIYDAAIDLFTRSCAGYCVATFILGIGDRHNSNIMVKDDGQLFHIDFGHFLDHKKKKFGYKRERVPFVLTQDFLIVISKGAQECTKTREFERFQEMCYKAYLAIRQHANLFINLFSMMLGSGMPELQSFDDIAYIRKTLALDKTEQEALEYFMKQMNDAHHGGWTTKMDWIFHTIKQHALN
UniProt Q8TD19, sequence (whole entry, looked up): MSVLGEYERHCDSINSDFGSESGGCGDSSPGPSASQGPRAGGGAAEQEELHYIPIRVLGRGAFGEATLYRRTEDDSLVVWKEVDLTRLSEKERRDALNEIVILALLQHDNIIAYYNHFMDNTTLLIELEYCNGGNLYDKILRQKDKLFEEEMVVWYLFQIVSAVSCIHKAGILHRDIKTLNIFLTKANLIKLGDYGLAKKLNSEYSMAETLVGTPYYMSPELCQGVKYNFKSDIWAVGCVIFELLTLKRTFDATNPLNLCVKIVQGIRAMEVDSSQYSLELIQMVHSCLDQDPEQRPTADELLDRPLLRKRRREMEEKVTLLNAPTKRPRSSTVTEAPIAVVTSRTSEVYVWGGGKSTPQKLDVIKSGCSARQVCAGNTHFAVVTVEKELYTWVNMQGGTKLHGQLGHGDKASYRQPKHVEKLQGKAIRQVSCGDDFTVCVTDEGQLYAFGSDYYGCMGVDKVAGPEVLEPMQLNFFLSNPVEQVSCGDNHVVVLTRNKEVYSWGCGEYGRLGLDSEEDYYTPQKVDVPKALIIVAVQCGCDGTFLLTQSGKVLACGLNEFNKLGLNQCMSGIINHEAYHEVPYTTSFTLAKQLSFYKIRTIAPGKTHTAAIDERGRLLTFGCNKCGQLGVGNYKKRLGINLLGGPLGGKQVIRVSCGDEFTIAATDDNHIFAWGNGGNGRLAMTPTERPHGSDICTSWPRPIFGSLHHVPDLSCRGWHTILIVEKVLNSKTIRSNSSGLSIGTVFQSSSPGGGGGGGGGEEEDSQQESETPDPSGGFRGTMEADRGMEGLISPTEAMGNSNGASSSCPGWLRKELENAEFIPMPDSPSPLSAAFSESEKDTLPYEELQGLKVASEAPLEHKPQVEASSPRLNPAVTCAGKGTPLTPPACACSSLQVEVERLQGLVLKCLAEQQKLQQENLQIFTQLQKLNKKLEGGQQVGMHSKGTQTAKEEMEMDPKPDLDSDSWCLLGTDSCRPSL
UniProt Q14289, sequence (whole entry, looked up): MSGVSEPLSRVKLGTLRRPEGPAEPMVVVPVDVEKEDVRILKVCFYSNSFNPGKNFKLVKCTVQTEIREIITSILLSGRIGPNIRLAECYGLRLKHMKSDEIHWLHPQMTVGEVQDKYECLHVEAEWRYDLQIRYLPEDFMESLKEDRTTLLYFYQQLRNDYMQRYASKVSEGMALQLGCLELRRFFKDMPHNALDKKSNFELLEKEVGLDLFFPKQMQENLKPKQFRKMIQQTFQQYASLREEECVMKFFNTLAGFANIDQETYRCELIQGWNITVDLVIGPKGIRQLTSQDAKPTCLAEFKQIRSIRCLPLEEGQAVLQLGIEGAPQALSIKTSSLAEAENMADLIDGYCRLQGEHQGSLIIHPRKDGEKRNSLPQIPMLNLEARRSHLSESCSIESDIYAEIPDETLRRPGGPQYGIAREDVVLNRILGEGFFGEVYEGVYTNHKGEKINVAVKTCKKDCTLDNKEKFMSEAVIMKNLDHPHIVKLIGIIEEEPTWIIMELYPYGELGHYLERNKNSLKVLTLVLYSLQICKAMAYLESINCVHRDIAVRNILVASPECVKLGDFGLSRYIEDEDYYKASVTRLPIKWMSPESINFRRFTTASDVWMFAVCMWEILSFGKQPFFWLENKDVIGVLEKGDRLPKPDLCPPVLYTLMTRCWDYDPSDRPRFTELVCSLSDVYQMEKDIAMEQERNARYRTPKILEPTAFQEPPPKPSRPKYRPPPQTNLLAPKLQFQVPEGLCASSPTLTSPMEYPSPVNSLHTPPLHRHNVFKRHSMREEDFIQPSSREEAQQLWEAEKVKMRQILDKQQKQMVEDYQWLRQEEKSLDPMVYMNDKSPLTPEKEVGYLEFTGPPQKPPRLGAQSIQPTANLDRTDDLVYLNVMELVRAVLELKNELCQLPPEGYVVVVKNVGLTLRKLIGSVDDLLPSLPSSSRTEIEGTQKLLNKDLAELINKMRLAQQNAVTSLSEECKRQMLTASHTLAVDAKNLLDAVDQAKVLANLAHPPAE
UniProt P53779, sequence (whole entry, looked up): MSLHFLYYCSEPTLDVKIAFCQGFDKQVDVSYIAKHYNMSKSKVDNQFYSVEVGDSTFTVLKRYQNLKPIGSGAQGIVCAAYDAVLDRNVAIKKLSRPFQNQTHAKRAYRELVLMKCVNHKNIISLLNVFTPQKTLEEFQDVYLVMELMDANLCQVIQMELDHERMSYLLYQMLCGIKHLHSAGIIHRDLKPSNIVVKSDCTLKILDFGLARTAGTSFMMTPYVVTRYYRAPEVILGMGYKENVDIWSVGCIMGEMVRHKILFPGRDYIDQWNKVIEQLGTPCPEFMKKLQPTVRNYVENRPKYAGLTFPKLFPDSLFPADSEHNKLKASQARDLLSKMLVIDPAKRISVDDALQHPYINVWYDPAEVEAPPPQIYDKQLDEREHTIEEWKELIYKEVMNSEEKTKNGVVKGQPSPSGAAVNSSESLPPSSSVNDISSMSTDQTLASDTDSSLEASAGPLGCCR
UniProt P34947, sequence (whole entry, looked up): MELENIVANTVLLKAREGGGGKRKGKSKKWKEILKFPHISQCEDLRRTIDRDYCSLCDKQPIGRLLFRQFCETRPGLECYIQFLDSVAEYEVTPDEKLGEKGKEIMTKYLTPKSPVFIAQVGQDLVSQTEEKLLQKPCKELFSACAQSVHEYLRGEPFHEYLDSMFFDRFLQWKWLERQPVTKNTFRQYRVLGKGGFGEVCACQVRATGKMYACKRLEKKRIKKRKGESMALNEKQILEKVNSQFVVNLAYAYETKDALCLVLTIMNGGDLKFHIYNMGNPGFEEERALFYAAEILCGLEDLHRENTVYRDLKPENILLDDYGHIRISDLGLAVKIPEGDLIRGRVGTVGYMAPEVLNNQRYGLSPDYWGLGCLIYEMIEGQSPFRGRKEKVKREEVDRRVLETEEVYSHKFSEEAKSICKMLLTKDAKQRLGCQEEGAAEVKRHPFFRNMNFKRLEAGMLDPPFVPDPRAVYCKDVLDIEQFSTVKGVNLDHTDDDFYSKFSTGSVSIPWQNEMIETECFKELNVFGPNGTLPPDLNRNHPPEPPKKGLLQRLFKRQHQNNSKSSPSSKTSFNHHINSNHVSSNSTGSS
UniProt Q96NX5, sequence (whole entry, looked up): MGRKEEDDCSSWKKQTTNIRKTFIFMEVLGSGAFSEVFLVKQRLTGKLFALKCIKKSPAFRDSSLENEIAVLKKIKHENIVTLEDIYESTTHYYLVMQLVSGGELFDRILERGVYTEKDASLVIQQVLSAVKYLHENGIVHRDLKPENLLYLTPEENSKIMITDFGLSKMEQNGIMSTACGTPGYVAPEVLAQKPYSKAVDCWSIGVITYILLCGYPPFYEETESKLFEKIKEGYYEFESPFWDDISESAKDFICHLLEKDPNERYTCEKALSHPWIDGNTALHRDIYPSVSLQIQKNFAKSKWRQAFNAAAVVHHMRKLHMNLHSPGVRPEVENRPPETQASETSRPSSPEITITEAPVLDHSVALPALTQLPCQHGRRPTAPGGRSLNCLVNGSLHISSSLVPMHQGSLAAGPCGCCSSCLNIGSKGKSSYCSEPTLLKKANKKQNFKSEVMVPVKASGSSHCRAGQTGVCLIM

Study 1
Medium: hydrocarbon/water
Endpoint: logD
CC(C)C[C@@H]1NC(=O)[C@H](Cc2ccc(O)cc2)N(C)C(=O)[C@H]2CCCN2C(=O)[C@H](CC(C)C)NC(=O)[C@H](C)N(C)C(=O)[C@@H](C)N(C)C1=O: -0.794
CCC[C@@H]1NC(=O)CN(CCC)C(=O)[C@H](CC(C)C)NC(=O)Cn2cc(nn2)CN(C)C(=O)[C@H](CC(C)C)NC(=O)[C@H](C)N(C)C(=O)[C@H](CC2CCCCC2)NC(=O)[C@H](C)N(C)C(=O)[C@H]2CCCN2C1=O: 0.581
CC[C@@H]1NC(=O)[C@H](CC)N(C)C(=O)[C@H]2CCCN2C(=O)[C@H](CC(C)C)NC(=O)[C@H](C)N(C)C(=O)[C@H](CC(C)C)NC(=O)Cn2cc(nn2)CN(C)C(=O)[C@H](CC(C)C)NC(=O)[C@H](C)N(C)C1=O: -1.18
CC(C)C[C@@H]1NC(=O)[C@H](C)N(C)C(=O)[C@H]2CCCN2C(=O)[C@H](CC(C)C)NC(=O)[C@H](C)N(C)C(=O)[C@@H](CC(C)C)N(C)C1=O: 0.883
CCC[C@@H]1NC(=O)[C@H](C)N(C)C(=O)[C@H](CC(C)C)NC(=O)Cn2cc(nn2)CN(C)C(=O)[C@H](CC(C)C)NC(=O)[C@H](C)N(C)C(=O)[C@H](CC(C)C)NC(=O)[C@H](CC)N(C)C(=O)[C@H]2CCCN2C1=O: -0.516
CC(C)C[C@@H]1NC(=O)[C@H](Cc2ccccc2)NC(=O)[C@H]2CCCN2C(=O)[C@H](CC(C)C)NC(=O)[C@H](CC(C)C)NC(=O)[C@@H](CC(C)C)NC1=O: 1.45
CCCCCN1CC(=O)N[C@@H](Cc2ccccc2)C(=O)N2CCC[C@@H]2C(=O)N(C)[C@@H](CC(C)C)C(=O)N[C@@H](C)C(=O)N(CC)CC(=O)N[C@@H](CC(C)C)C(=O)N2CCC[C@@H]2C(=O)N(C)[C@@H](CC(C)C)C(=O)N[C@@H](C)C1=O: 2.53
CCCN1CC(=O)N[C@@H](CC2CCCCC2)C(=O)N(C)[C@@H](C)C(=O)N[C@@H](CC(C)C)C(=O)N(C)Cc2cn(nn2)CC(=O)N[C@@H](CC(C)C)C(=O)N(C)[C@@H](C)C(=O)N[C@@H](CC2CCCCC2)C(=O)N2CCC[C@@H]2C1=O: 2
CCC[C@@H]1C(=O)N(C)[C@@H](CC2CCCCC2)C(=O)N[C@@H](CC2CCCCC2)C(=O)N2CCC[C@@H]2C(=O)N(C)[C@@H](Cc2ccc(O)cc2)C(=O)N[C@@H](CC(C)C)C(=O)N1C: 3.22
CCC[C@@H]1NC(=O)CN(CC)C(=O)[C@H](CC(C)C)NC(=O)Cn2cc(nn2)CN(C)C(=O)[C@H](CC(C)C)NC(=O)[C@H](C)N(C)C(=O)[C@H](CC2CCCCC2)NC(=O)[C@H](C)N(C)C(=O)[C@H]2CCCN2C1=O: 0.101
CC(C)C[C@@H]1NC(=O)CN(Cc2ccc3c(c2)OCO3)C(=O)[C@H](C)NC(=O)[C@H](CC(C)C)N(C)C(=O)[C@H]2CCCN2C(=O)[C@H](C)NC(=O)CN(CC2CCCCC2)C(=O)[C@H](C)NC(=O)[C@H](CC(C)C)N(C)C(=O)[C@H]2CCCN2C1=O: 2.49
CCCCCN1CC(=O)NC(CC(C)C)C(=O)N(C)C(C)C(=O)NC(Cc2ccccc2)C(=O)N2CCCC2C(=O)N(CCCOC(C)C)CC(=O)NC(CC(C)C)C(=O)N(C)C(C)C(=O)NC(CC(C)C)C(=O)N2CCCC2C1=O (stereo not drawn): 3.21
CC(C)CC1NC(=O)CN(CC2CCOCC2)C(=O)C2CCCN2C(=O)C(CC(C)C)NC(=O)C(C)N(C)C(=O)C(CC(C)C)NC(=O)CN(CCCOC(C)C)C(=O)C2CCCN2C(=O)C(C)NC(=O)C(C)N(C)C1=O (stereo not drawn): 1.33
CC(C)C[C@@H]1NC(=O)[C@H](C)N(C)C(=O)[C@H](CC2CCCCC2)NC(=O)[C@H](CC(C)C)N(C)C(=O)[C@H]2CCCN2C(=O)[C@H](CC2CCCCC2)NC(=O)[C@H](C)N(C)C(=O)[C@H](CC(C)C)NC(=O)Cn2cc(nn2)CN(C)C1=O: 2.64

Study 2
SMILES: Cn1nc(C(=O)NCc2ccc(C(=O)O)cc2)cc1-c1ccc2[nH]ccc2c1
Technique: competition with immobilised ligand
Tested at: 0.1 µM
Endpoint: remaining binding
PRKX (Homo sapiens, UniProt P51817); cell-free assay: 71%
PIP5K1A (Homo sapiens, UniProt Q99755); cell-free assay: 63%
MAP2K4 (Homo sapiens, UniProt P45985); cell-free assay: 79%
NLK (Homo sapiens, UniProt Q9UBE8); cell-free assay: 100%
MAP2K5 (Homo sapiens, UniProt Q13163); cell-free assay: 63%
SRPK1 (Homo sapiens, UniProt Q96SB4); cell-free assay: 33%
TEC (Homo sapiens, UniProt P42680); binding: 89%
TAOK1 (Homo sapiens, UniProt Q7L7X3); cell-free assay: 91%
PIK3CA (Homo sapiens, UniProt P42336, I800L); cell-free assay: 100%
HIPK1 (Homo sapiens, UniProt Q86Z02); cell-free assay: 85%
PIK3CA (Homo sapiens, UniProt P42336, H1047L); cell-free assay: 100%
ZAP70 (Homo sapiens, UniProt P43403); cell-free assay: 82%
CSNK2A2 (Homo sapiens, UniProt P19784); cell-free assay: 100%
Tyrosine-protein kinase ABL1, non-phosphorylated (ABL1, Homo sapiens, UniProt P00519, F317I); binding: 68%
NIM1K (Homo sapiens, UniProt Q8IY84); cell-free assay: 78%
SRPK2 (Homo sapiens, UniProt P78362); cell-free assay: 85%
MAPK14 (Homo sapiens, UniProt Q16539); cell-free assay: 100%

Study 3
Target: Diamine acetyltransferase 1 (Homo sapiens, UniProt P21673)
Action: inhibitor
Tested at: 10 µM
Baseline: control
Endpoint: remaining activity
Residues (P21673 1-171): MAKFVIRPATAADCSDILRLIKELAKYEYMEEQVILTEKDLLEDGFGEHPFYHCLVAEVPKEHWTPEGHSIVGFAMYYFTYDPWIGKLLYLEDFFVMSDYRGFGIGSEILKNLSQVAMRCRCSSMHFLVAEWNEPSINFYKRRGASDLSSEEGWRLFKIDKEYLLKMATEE
O=C(O)[C@@H]1CCCCN1: 102%
COc1ccccc1O: 85.8%
CCC(=O)c1c(O)cc(O)cc1O: 93.4%
COc1ccccc1C=CC=O: 91.5%
O=C(O)[C@@H]1C[C@@H](O)CN1: 94.6%
CCCCCC/C=C\CCCCCCCC(=O)OC: 101%
COc1c(/C=C/C(=O)c2ccc(O)c(CC=C(C)C)c2)ccc(O)c1O: 89.8%
COc1ccc(-c2cc(=O)c3c(O)cc(O[C@@H]4O[C@H](CO[C@@H]5O[C@@H](C)[C@H](O)[C@@H](O)[C@H]5O)[C@@H](O)[C@H](O)[C@H]4O)cc3o2)cc1O: 101%
C=C(C)[C@H]1CC=C(C)C(=O)C1: 99.5%
Oc1cc(O)c2c(c1)O[C@@]1(c3ccc(O)c(O)c3)Oc3cc(O)c4c(c3[C@@H]2[C@H]1O)O[C@H](c1ccc(O)c(O)c1)[C@H](O)C4: 99.4%
CCCCC/C=C\C/C=C\CCCCCCCC(=O)OCC: 95.8%
O[C@]12CO[C@H](c3ccc4c(c3)OCO4)[C@H]1CO[C@@H]2c1ccc2c(c1)OCO2: 84.2%
COc1cc(C=O)ccc1OC(C)=O: 90.4%
O=C(CCCCCCCCc1ccccc1)c1c(O)cccc1O: 106%
O=C(O)c1ccccc1C(=O)O: 94.7%

Study 4
SMILES: Oc1ccc(Nc2nc(-c3ccc(Cl)cc3)cs2)cc1
Observed: enzyme activity
Action: inhibitor
Tested at: 0.5 µM
Baseline: control
Endpoint: remaining activity
ROS1 (Homo sapiens, UniProt P08922): 96.9%
EGFR (Homo sapiens, UniProt P00533): 95.3%
GRK5 (Homo sapiens, UniProt P34947): 92%
PRKD1 (Homo sapiens, UniProt Q15139): 96.8%
Cyclin-dependent kinase 2, with cyclin A (CDK2, Homo sapiens, UniProt P24941): 98.6%
CAMK1D (Homo sapiens, UniProt Q8IU85): 103%
MAPK10 (Homo sapiens, UniProt P53779): 101%
NEK9 (Homo sapiens, UniProt Q8TD19): 90.6%
Aurora kinase A (AURKA, Homo sapiens, UniProt O14965): 89.4%
HIPK3 (Homo sapiens, UniProt Q9H422): 109%
MAP3K2 (Homo sapiens, UniProt Q9Y2U5): 92.1%
DYRK4 (Homo sapiens, UniProt Q9NR20): 95.9%
BRSK1 (Homo sapiens, UniProt Q8TDC3): 102%
RET (Homo sapiens, UniProt P07949): 99%
DMPK (Homo sapiens, UniProt Q09013): 102%
CSNK2A2 (Homo sapiens, UniProt P19784): 96.9%
CAMK1G (Homo sapiens, UniProt Q96NX5): 106%
SLK (Homo sapiens, UniProt Q9H2G2): 110%
MAP3K8 (Homo sapiens, UniProt P41279): 94.9%
NTRK3 (Homo sapiens, UniProt Q16288): 102%
CDK7 (Homo sapiens, UniProt P50613): 96.3%
PTK2B (Homo sapiens, UniProt Q14289): 100%
PKN2 (Homo sapiens, UniProt Q16513): 93.8%
